Experimental data collected from several papers.
Protocols differ between the studies behind these lines. “And” joins repeats or separate records; there may be more than shown.
JAK3 JH1: Tyrosine-protein kinase JAK3, JH1 (JAK3, Homo sapiens, UniProt P52333)
JAK3: Tyrosine-protein kinase JAK3 (JAK3, Homo sapiens, UniProt P52333)

For `CNS(=O)(=O)Nc1nccc(Cc2c(C)c3ccc(Oc4ncccc4F)cc3oc2=O)c1F`, the remaining binding was 100% (JAK3 JH1; binding, competition with immobilised ligand; 10 µM).
With `O=C(CNc1cccc2ccccc12)N/N=C/c1ccc([N+](=O)[O-])o1` the relative translation was 88.5% (Trypanosoma cruzi; reporter mRNA translation, inhibitor, refers to: capped polyadenylated Renilla luciferase mRNA; cell-free extract; concentration not given; baseline: control RNA).
With `COCC12C(=O)NC3C4(C(OC)CC1O)C1CC5(O)C(OC)C(O)C(OC(C)=O)(C1C5OC(=O)c1ccccc1)C3(O)C(OC)C24` (centres unmarked) the remaining activity was 105% and 102% (JAK3; kinase activity, inhibitor, ProQinase kinase profiling; 25 µM; baseline: control).
The relative translation of `CN(C)CCNc1ccc(-c2nn(C)c(=O)c3ccccc23)cc1[N+](=O)[O-]` is reported as 95.7% (Trypanosoma cruzi; reporter mRNA translation, inhibitor, refers to: capped polyadenylated Renilla luciferase mRNA; cell-free extract; concentration not given; baseline: control RNA).
`CN1CCN(Cc2ccc(NC(=O)c3cccc(C#Cc4cnc(N)c5ncccc45)c3)cc2C(F)(F)F)CC1` gave a remaining binding of 16% (JAK3 JH1; cell-free assay, competition with immobilised ligand; 50 nM).
With `C=CC(=O)Nc1cccc(-c2cnc3[nH]cc(C(=O)NC(C)(C)C)c3n2)c1` the inhibition was 99% (JAK3; enzyme activity, inhibitor; 0.1 µM).
`C[C@H](c1ccccc1)N1C(=O)C2=Nc3cccc(Cl)c3CN2C1=S` has an inhibition of at least 85% (JAK3; enzyme activity, inhibitor; 1.5 µM).
`C=CC(=O)N1CCCC(n2c(=O)c3ncccc3n(Cc3ccc(Oc4ccccc4)cc3)c2=O)C1` (centres unmarked) gave a remaining binding of 64% (JAK3 JH1; cell-free assay, competition with immobilised ligand; 1 µM).
With `COc1c(Cl)cccc1Nc1c(-c2ccncc2C#C[C@@]2(C)CCCN2C(=O)/C=C/CN(C)C)[nH]c2c1C(=O)NCC2` the remaining binding was 75% (JAK3 JH1; cell-free assay, competition with immobilised ligand; 3 µM).
`CCN1CCN(Cc2ccc(NC(=O)c3ccc(C)c(NC(=O)c4cncc(-c5cccs5)c4)c3)cc2C(F)(F)F)CC1` gave a remaining binding of 33% (JAK3; KinomeScan; 1 µM).
For `CN1CC[C@@H](COc2cnc(C#N)cc2-c2ccn3nc(NC(=O)C4CC4)cc3c2)C1`, the inhibition was 28% (JAK3; enzyme activity, inhibitor; 1 µM).
With `O=C(Nc1ccc(Oc2ncnc3[nH]cc(-c4ccccc4)c23)c(F)c1)c1c2n(n(-c3cc(F)ccc3F)c1=O)CCCC2` the inhibition was 12% (JAK3; enzyme activity, inhibitor; 0.5 µM).
`CNC(=O)C[C@H](Cc1ccc(C#N)cc1)NC(=O)c1cc(-c2ccc(CN[C@H](C)c3ccc(C)cc3)o2)ccc1Cl`: “activity vs control” 104% (JAK3; enzyme activity, inhibitor; 1 µM).
The inhibition of `Cc1cccc(O[C@H]2CCC[C@@H](C(C)CNCc3ccncc3)C2)c1` (relative stereo) is reported as -4% (JAK3; enzyme activity, inhibitor; 10 µM).
`Nc1ncc2c(n1)-c1c([nH]c3ccc(C4=CCOCC4)cc13)CCC2` has a remaining binding of 97% (JAK3 JH1; binding, competition with immobilised ligand; 1 µM).
`Cc1cnc2nc1Nc1cccc(c1)COC/C=C/COCc1cc(ccc1OCCN1CCOCC1)N2` gave a remaining signal of 9.6% (JAK3 JH1; cell-free assay; 0.1 µM).
`O=C=[N][Ru-4]123([n]4c5ccc(O)cc5c5c6c(c7cc(F)c[n+]1c7c54)C(=O)NC6=O)[S+]1CC[S+]2CC[S+]3CC1` (centres unmarked) gave a remaining activity of 103% (JAK3; enzyme activity; 100 nM, human enzyme, added: 10 µM ATP; baseline: untreated).
The remaining activity of `COc1ccc(NC(=O)Nc2ccc3c(c2)C(=O)N(C(C)CO)CC(C)C(CN(C)Cc2ccc4c(c2)OCO4)O3)cc1` (centres unmarked) is reported as 95% (JAK3; kinase activity, KinaseProfiler; 0.03 µM, species human; baseline: control).
With `NC(=O)[C@@H](O)C[C@H]1CCc2sc3ncnc(O[C@H]4CC[C@H](N5CCOCC5)CC4)c3c21` the inhibition was 8% (JAK3; enzyme activity, inhibitor; 10 µM).
For `CCn1cc(C(=O)O)c(=O)c2c(N)c(F)c(NC3CCCCC3)cc21`, the inhibition was -17% (JAK3; kinase activity; 0.1 µM, added: ATP at Km).
`COc1cc(Nc2nccc(-c3cnn4nc(OC)ccc34)n2)cc(C(F)(F)F)c1` has a remaining binding of 87% (JAK3 JH1; binding, competition with immobilised ligand; 1 µM).
`C[C@H]1CN(C(=O)c2cn(-c3ccnc(N)n3)c3cc(C#CC4(O)CCCCC4)ccc23)CCN1` gave an inhibition of -2% (JAK3; enzyme activity, inhibitor, FRET; 1 µM).
`COc1ccc(O)cc1-c1c[nH]c2ncc(-c3cncc(C(=O)N(C)C)c3)cc12` gave an inhibition of 69.3% (JAK3; binding, competition with immobilised ligand; 0.2 µM).

Repeated from above:
`COc1ccc(O)cc1-c1c[nH]c2ncc(-c3cncc(C(=O)N(C)C)c3)cc12` gave an inhibition of 69.3% (JAK3; binding, competition with immobilised ligand; 0.2 µM).
With `C=CC(=O)Nc1cccc(-c2cnc3[nH]cc(C(=O)NC(C)(C)C)c3n2)c1` the inhibition was 99% (JAK3; enzyme activity, inhibitor; 0.1 µM).
